Measured values collected from several papers.
Parts stem from different laboratories: compare values within a part only.

Sample 1
Target: RING finger protein unkempt homolog, zinc fingers 1-6, GST-SBP tag (UNK, Homo sapiens, UniProt Q9C0B0, residues 30-357)
Method: RNA Bind-n-Seq
Form: RNA
Medium: in vitro
Tested at: not given
Notes: RNA with constant flanks, human-mouse chimeric sites, ends assumed
Relative to: input RNA pool
Reading: higher = stronger binding
Endpoint: bound/input enrichment
Constant ends, left off below: GGGAGUUCUACAGUCCGACGAUC … CAACAGAGGAUUGAGCAUCA
Residues (chain): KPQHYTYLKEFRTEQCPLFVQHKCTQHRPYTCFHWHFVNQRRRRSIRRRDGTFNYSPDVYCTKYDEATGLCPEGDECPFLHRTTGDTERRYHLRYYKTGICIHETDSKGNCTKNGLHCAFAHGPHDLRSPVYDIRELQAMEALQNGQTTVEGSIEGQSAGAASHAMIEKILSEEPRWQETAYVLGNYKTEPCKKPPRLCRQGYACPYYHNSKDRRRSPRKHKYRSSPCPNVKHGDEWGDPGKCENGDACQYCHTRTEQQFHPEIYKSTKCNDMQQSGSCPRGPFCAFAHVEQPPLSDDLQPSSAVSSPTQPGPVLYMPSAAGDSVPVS
GUUGCCAGCUUCCGGUUCCGUUGGGCUCGGUUCUCUCAGUGCUACGUUGUCUCUACGCUCUCAAUCCGCCAUCCAACAAACAUGGAUCAGGUAAUGCUGCAGUUUGUGCCCAGCCGGCAG: 0.339 ratio
GUCAACAGCUGCCUCAACCCCAUCCUCUACGCCUUCCUGGAUGAGAACUUCAAGGCCUGCUUUAGAAAGUUCUGCUGUGCAUCUGCCCUGCGCCGGGAGAUGCAGGUGUCUGACCGCGUG: 0.273 ratio
UUGAAAACAAACUGAUUUAAGUUUGAGUAUCACAAUGUUAGCUUUCUAAUUCCAUAAAAGUACUUGGUUUUUACAGUUUAUAAUCUGACAUCACCCCAGCGCCAUUUAGAUCAGCUUACU: 0.729 ratio
UACUCAACUUUCUUGCCACAUUUUGAAUUCCAAGAUGUUAUUCCUCCAGAUGACUUCCUAACGAGUGAUGAAGAGCAAGAUUUGGUUUUAUUUGGAACUAUGAGAGGUCAUGUGGUUGGA: 0.15 ratio
GUAGCUGGGACUACAGAAAUGCUGGUAAUUUCAGUCAGUGAGUCGUGACUUCUGAUGUCCCAGCAAAUAAUGCCACAGUUGACUGCUGAGAAGAUACUUCUGAGGACCCACGUCUAAGGU: 0.0735 ratio
CCAAUCGUGGAGCAGUACUUGAAGACAAAGAAAAAUUCUAAUAAUUUAAUCAUCAAGUACAUUAGCUGCCGCCUGCUGACACUCAUCGUUAUACUGUUAGCGUGUAUCUACCUGGGCUAU: 0.288 ratio
GGCUGCUGGUGACUGUCCUGGAGUGGCCGUGUCACCGGCCGGAGCGCGGCCAGACUAAUUUUAGAAAAUGCCAAGUAGGAAAUUUGCUGAGGGUGAAGUGGUCAGAGGCCGAUGGCCUGG: 3.9 ratio
AACGUGGAGUUGAGUUCCUUGGCCCGGCUUCCCAGCUUGAAUAAACUCCGGAAGUUGGAGCUUAGUGACAAUAUAAUUUCUGGAGGCUUGGAAGUCCUGGCAGAGAAAUGUCCAAAUCUU: 0.216 ratio
UGUGAACUGUCUCUUGAUUGGGGUCUACAAGAUGACUUUUCCUGGCACAUAUUUCAAAGCAAAGACUUUGUUGCCUGCUGCUUAUUGUCUAAUUUACAGGGAUAUUUAAUUUUGUCAGGU: 0.334 ratio
AAUAGAGGAUCCACCUCCCAAAGUGCUGGGAGUAAAGGUGUGGCCACCACACCUAACUUCAUAGACAUAUAUUUUUUUUAAUAUGAAUCUUCCUGUUCGUCCAGGGAAGAAAGAUUUGUU: 7.66 ratio
CACAGAGGCACCACCCCCCCCUCCUCCUUUCCACACCUGCAAACUCUUUUACUUGGGCUGAAUAUUUAGUGUAAUUACAUCUCAGCUUUUGAGGGCUCUGUGGCAAAUUCCCGGAUUAAA: 1.47 ratio

Sample 2
Target: Histone acetyltransferase KAT6A, winged helix 1, GST fusion (KAT6A, Homo sapiens, UniProt Q92794, residues 1-85)
Method: protein binding microarray
Form: double-stranded DNA, one strand shown
Medium: in vitro
Tested at: not given
Notes: 8-mer, flanks averaged, mean of 2 arrays, mostly near background
Relative to: not given
Reading: higher = stronger binding
Endpoint: E-score
Construct (chain): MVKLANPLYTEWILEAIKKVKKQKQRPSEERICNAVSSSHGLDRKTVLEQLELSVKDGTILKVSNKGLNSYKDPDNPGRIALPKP
AGACACCA: -0.306
GGTTTTCA: -0.0163
TAAAAGGA: -0.149
AGAACCCC: -0.191
AACCAGGC: -0.133
TCCCCACA: -0.241
ACGAGACC: 0.0342
TATGTCCA: -0.0693
AGTCGACT: -0.0847
AGTAGTCA: -0.136
CAAAGCTA: -0.0351
AGCTTCCG: 0.0623
GAATCCAA: -0.145
ATGCCTAG: -0.0642
GTATATTA: -0.104
ACTCTTAC: -0.226
GGATTAAA: -0.0278
CCTGAGCG: 0.274

Sample 3
Target: Ras GTPase-activating protein-binding protein 1, RRM domain (G3BP1, Homo sapiens, UniProt Q13283)
UniProt Q13283, sequence (whole entry, looked up): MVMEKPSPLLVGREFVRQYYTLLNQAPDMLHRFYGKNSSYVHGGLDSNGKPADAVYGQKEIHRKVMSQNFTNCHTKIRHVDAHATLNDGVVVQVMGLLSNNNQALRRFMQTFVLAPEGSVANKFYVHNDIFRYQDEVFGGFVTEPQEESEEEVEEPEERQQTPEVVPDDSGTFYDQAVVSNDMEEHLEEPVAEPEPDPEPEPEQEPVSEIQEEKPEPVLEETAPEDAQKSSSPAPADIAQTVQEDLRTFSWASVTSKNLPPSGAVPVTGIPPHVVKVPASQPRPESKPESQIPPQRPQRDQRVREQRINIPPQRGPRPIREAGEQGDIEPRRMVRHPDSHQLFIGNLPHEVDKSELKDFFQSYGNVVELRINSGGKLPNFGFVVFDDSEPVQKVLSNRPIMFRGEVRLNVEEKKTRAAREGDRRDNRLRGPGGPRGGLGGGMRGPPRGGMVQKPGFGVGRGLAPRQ
Method: RNA Bind-n-Seq
Form: RNA
Medium: in vitro
Tested at: 1 µM
Notes: whole 134-nt RNA, ends assumed
Together with: 150 mM KCl
Relative to: input library
Reading: higher = stronger binding
Endpoint: log2 enrichment
Constant ends, left off below: GGGAGUUCUACAGUCCGACGAUC … UGGAAUUCUCGGGUGUCAAGG
AAGUCCUGUGCUACACAUCGUAUGUACCGAAUCGGGUUUUUUUGGGUUUGGGUGGGAAAGUAUUAUGUUACGCCGUUCGGAUCUGCACUU: 0.265
UAACUUUAGAGGCGGAUCUGAUGGAUAUGGCAGUGGACGUGGAUUUGGGGAUGGCUAUAAUGGGUAUGGAGGAGGACCUGGAGGUGGCAA: -0.863
CCUGUGCUACACAUCGUAUGUACCGAAUCGGGAAAAAAAGGAAAAAAAGGGAAAAAAAGGAAAGUAUUAUGUUACGCCGUUCGGAUCUGC: 0.0676
UGGGAGGUGGAUUUUGUUUAUUUUUUUAGCUCAUUUCCAGGGGUGGGAAUUUUUUUUUAAUAUGUGUCAUGAAUAAAGUUGUUUUCGAAA: 1.51
GUCCUGUGCUACACAUCGUAUGUACCGAAUCGGGGCCCCGGGGCCCCGGGGCCCCGGGGAAAGUAUUAUGUUACGCCGUUCGGAUCUGCA: -0.859
AAGUCCUGUGCUACACAUCGUAUGUACCGAAUCAAACCCCCAAAUUUAAAUUUAAAAAAGUAUUAUGUUACGCCGUUCGGAUCUGCACUU: -0.0549
UGGGUGGUGGAUUUUGUUUAUUUUUUUAGCUCAUUUCCAGGGGUGGGAAUUUUUUUUUAAUAUGUGUCAUGAAUAAAGUUGUUUUUGAAA: 1.37
UAACUUUAGAGGAGGAUCUGAUGGAUAUGGCAGUGGACGCGGAUUUGGGGAUGGCUAUAAUGGGUAUGGAGGAGGACCUGGAGGUGGCAA: -0.511
GUCCUGUGCUACACAUCGUAUGUACCGAAUCGGCCCCCCGGCCCCCCGGCCCCCCGGGGAAAGUAUUAUGUUACGCCGUUCGGAUCUGCA: -0.61
UGUGCUACACAUCGUAUGUACCGAAUCGGGGUUUUUUUGGGGUUUUUUUGGUUUUUUUGGGGAAAGUAUUAUGUUACGCCGUUCGGAUCU: -0.308
UGCCAUGGACAAUAUUACCAGGCAGAACCAAUUCUACGAUACCCAAGUCAUCAAACAAGAAAACGAGUCAGGCUACGAGAGGAGACCACU: -0.0584
CUCAAGUCCUGUGCUACACAUCGUAUGUACCGAAUCGGGUGGGAGGGUUUGGGAAAGUAUUAUGUUACGCCGUUCGGAUCUGCACUUCCA: 0.922
GCAGGAAGUAAAAACAAAUGGAAAUGCUUCGGAUAGUGGCAGGGGUGGGGGUCGCUAAGGAAAGGGUGGGAUGGGAGUGGGUAAAGAGUU: 0.716
UGUCCCUGACUCUCCAUUUCCCCAUCUGAGUGGAUUUGGACCUAAUAGGGCACUGGAGCUGGUUCGAAUCCUGACUGGACUACUUGGCAA: 0.291

Sample 4
Target: Centromere-binding protein 1, full length, N-terminal tag (CBF1, Saccharomyces cerevisiae, UniProt P17106, residues 1-351)
UniProt P17106, sequence (whole entry, looked up): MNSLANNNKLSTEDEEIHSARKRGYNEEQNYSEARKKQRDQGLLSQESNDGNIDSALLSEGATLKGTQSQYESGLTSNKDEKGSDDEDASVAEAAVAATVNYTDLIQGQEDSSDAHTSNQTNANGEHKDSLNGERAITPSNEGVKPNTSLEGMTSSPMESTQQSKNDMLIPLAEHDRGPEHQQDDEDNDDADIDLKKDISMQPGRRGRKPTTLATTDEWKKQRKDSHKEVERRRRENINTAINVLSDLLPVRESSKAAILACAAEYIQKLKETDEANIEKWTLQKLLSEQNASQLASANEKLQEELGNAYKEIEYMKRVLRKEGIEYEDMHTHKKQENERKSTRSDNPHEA
Method: protein-binding microarray
Form: double-stranded DNA, one strand shown
Medium: in vitro
Tested at: 0.8 µM
Notes: whole 60-bp probe, no competitor
Reading: higher = stronger binding
Endpoint: fluorescence intensity
Constant ends, left off below: … GTCTTGATTCGCTTGACGCTGCTG
CTATCCACGGAAAAACACGTGCTGTGCGGGTATTTC: 6520 a.u.
CTATACAATCAAGCTCACCCGAGCCATCCACCTTTC: 519 a.u.
CTATCAATTATTCATCACCAATATAGACTAATGTTC: 564 a.u.
GAACGGACCTTCAAGGATGTGACGTTTTTGCCTTAG: 509 a.u.
GAATTGAAAACGGGACACGTTATAACTACTTTCTAG: 558 a.u.
GAAGTCTCTACTGGTGGTGGTGCTTCTTTGGAATAG: 512 a.u.
TGTACGAAGCTATCAGATGTGACTATAGTAGTTAGG: 533 a.u.
CCTAACTACTATATTAACGTGGGATAGCTTCGTACA: 529 a.u.
GAAGGATATTGTGCTGATGTAAAAGTATTCCTATAG: 562 a.u.
GAAATAAAAGTGCCAAGCGTGCTCATTATTGGATAG: 564 a.u.
TGTACGAAGCTATTTTATCTGATTATAGTAGTTAGG: 520 a.u.
TGTACGAAGCTATAAGGTCACGTTATAGTAGTTAGG: 3320 a.u.
TGTACGAAGCTATATCACGTGAATATAGTAGTTAGG: 13900 a.u.
CCTAACTACTATAAACACGTTTGATAGCTTCGTACA: 580 a.u.
CTACTAGAATAGTATCACGTACAGTAGTTTAATTTC: 641 a.u.
CTAATGCCCCCCTCAGGTGTCGTTAAATAAGCTTTC: 518 a.u.
GAACTAAACGGAAGGCACATGCATCGCATAATTTAG: 696 a.u.
CTAATATCAAATTGTCACCCGGTATAGATATACTTC: 579 a.u.
GAAGGAGCGTACATAGGTGACATTTGATAAGGTTAG: 552 a.u.
GAAGCGTTGAAGTGTCACCATTGCCTATCCTTTTAG: 496 a.u.
TGTACGAAGCTATACGTGGCAACTATAGTAGTTAGG: 510 a.u.
GAAGGGAATGTGGAGTATCTGATGTAACACTGTTAG: 514 a.u.
CTACTCCATTGAATTGAGGTGACGATGGATAAATTC: 518 a.u.

A few entries again (sample 4):
CTACTAGAATAGTATCACGTACAGTAGTTTAATTTC: 641 a.u.
CTAATGCCCCCCTCAGGTGTCGTTAAATAAGCTTTC: 518 a.u.
GAACTAAACGGAAGGCACATGCATCGCATAATTTAG: 696 a.u.
CTAATATCAAATTGTCACCCGGTATAGATATACTTC: 579 a.u.
